Published values gathered from unrelated publications.
Compare with care: the assays were run in different laboratories. Several values in a cell are separate wells, animals, samples, runs or records.
Target: Serine/threonine-protein kinase haspin (HASPIN, Homo sapiens, UniProt Q8TF76)

Compound	assay	conditions	how to read	quantity	value
C=CC(=O)Nc1cccc(-c2cnc3[nH]cc(C(=O)NC(C)(C)C)c3n2)c1	kinase activity	0.1 µM		inhibition	5% and 7%
C=CC(=O)N1CCc2ccc(-n3c(=O)ccc4cnc5ccc(-c6cnn(C)c6)cc5c43)cc21	KINOMEscan	1 µM	relative to: DMSO control	remaining binding	100%
Cc1cccc(O[C@H]2CCC[C@@H](C(C)CNCc3ccncc3)C2)c1 (relative stereo)	enzyme activity, inhibitor	10 µM		inhibition	1%
COc1c(Cl)cccc1Nc1c(-c2ccncc2C#C[C@@]2(C)CCCN2C(=O)/C=C/CN(C)C)[nH]c2c1C(=O)NCC2	cell-free assay, competition with immobilised ligand	3 µM		remaining binding	64%
Cc1cc(NC(=O)[C@H](O)c2cc(F)cc(F)c2)ccc1-c1cnc(N)c(C(=O)NC(C)C)c1	binding, competition with immobilised ligand	10 µM		remaining binding	30%
COc1cc(Nc2nc(C)cc(-c3cnn4nc(OC)ccc34)n2)cc(C(F)(F)F)c1	KINOMEscan binding	1000 nM	relative to: control	remaining binding	100%
CNC1C[S+]2CC[S+]3CC[S+](C1)[Ru-4]321([N]=C=S)[n]2c3ccc(OC)cc3c3c4c(c5cc(F)c[n+]1c5c32)C(=O)NC4=O (stereo not drawn)	KinomeScan	0.1 µM	relative to: untreated	remaining binding	81%
Cc1cnc2nc1Nc1cccc(c1)COC/C=C/COCc1cc(ccc1OCCN1CCOCC1)N2	binding, competition with immobilised ligand	0.1 µM		remaining binding	75%
Nc1ncc2c(n1)-c1c([nH]c3ccc(C4=CCOCC4)cc13)CCC2	binding, competition with immobilised ligand	1 µM		remaining binding	71%
NC(=O)[C@@H](O)C[C@H]1CCc2sc3ncnc(O[C@H]4CC[C@H](N5CCOCC5)CC4)c3c21	enzyme activity, inhibitor	10 µM		inhibition	37%
CCn1cc(C(=O)O)c(=O)c2c(N)c(F)c(NC3CCCCC3)cc21	kinase activity	0.1 µM, with: ATP at Km		inhibition	-7.3%
COc1ccc(NC(=O)Nc2ccc3c(c2)C(=O)N(C(C)CO)CC(C)C(CN(C)Cc2ccc4c(c2)OCO4)O3)cc1 (stereo not drawn)	kinase activity, KinaseProfiler	0.03 µM, species human	relative to: control	remaining activity	94%
CN1CC[C@@H](COc2cnc(C#N)cc2-c2ccn3nc(NC(=O)C4CC4)cc3c2)C1	enzyme activity, inhibitor	1 µM		inhibition	17%
C=CC(=O)N1Cc2nc(-c3cc(-c4cc(Cl)cnc4Cl)c(F)cc3F)n(-c3ccncn3)c2C1	cell-free assay, inhibitor	1 µM		inhibition	5.6%
O=C(Cc1ccc(OCc2ccccc2)cc1)NC1(C(=O)O)CCN(C(=O)c2ccc(-c3cccc(Cl)c3)cc2)CC1	enzyme activity, inhibitor	10 µM		activity vs control	126%

A few entries again:
Compound	assay	conditions	how to read	quantity	value
O=C(Cc1ccc(OCc2ccccc2)cc1)NC1(C(=O)O)CCN(C(=O)c2ccc(-c3cccc(Cl)c3)cc2)CC1	enzyme activity, inhibitor	10 µM		activity vs control	126%
